Results pooled from the literature.
Every numbered part comes from another study and shows a few of its results, in no order.

Block 1
Target: Histone acetyltransferase KAT6A, winged helix 1, GST fusion (KAT6A, Homo sapiens, UniProt Q92794, residues 1-85)
Technique: protein binding microarray
Form: double-stranded DNA, one strand shown
Medium: in vitro
Tested at: not given
Notes: 8-mer, flanks averaged, mean of 2 arrays, mostly near background
Reference: not given
Reading: higher = stronger binding
Quantity: E-score
Construct (chain): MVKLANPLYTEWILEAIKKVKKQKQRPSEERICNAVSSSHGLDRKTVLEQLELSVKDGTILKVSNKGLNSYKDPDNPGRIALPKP
AAAAAGAT: -0.129
ATCATAGG: 0.00198
CCAGCCCC: -0.0935
AAATTGCC: 0.0175
GATCGATA: -0.0301
GAATCTTA: -0.121
CAGTGAGA: -0.394
AGAAAATG: -0.275
CCACATAA: 0.0152
AGCGCACA: 0.14
AATCGCGC: 0.359
AAACGGCA: 0.192
AGACGAAA: 0.0363
TCGAGGCA: -0.0873
CCACACCG: 0.065
GAGTCAGA: 0.0998
AAAGATGA: -0.212
GGTTTAAA: -0.0453
CGGGGAAA: 0.168
TGTATCAA: -0.0886
ACCTTCTA: -0.197
ACGAACGT: -0.0771
AAACCGTT: -0.0555
ACAGATCA: -0.181
CGGTTAAG: 0.107

Block 2
Target: Fragile X messenger ribonucleoprotein 1, C-terminal low-complexity region (Fmr1, Mus musculus, UniProt P35922)
Technique: RNA Bind-n-Seq
Form: RNA
Medium: in vitro
Tested at: 200 nM
Notes: whole 134-nt RNA, ends assumed
Together with: 150 mM LiCl
Reference: input library
Reading: higher = stronger binding
Quantity: log2 enrichment
Library: 7-deaza-guanosine replaces G
Constant ends, left off below: GGGAGUUCUACAGUCCGACGAUC … UGGAAUUCUCGGGUGUCAAGG
AGUCCUGUGCUACACAUCGUAUGUACCGAAUCGGGUUUUUUUGGGUUUGGGAAAGGGAAAGUAUUAUGUUACGCCGUUCGGAUCUGCACU: -1.71
UCAAGUCCUGUGCUACACAUCGUAUGUACCGAAUCGGGGAAGGGGAAGGAAGGGAAAGUAUUAUGUUACGCCGUUCGGAUCUGCACUUCC: -1.05
CUCAAGUCCUGUGCUACACAUCGUAUGUACCGAAUCGGGUGGGUGGGGUGGGGAAAGUAUUAUGUUACGCCGUUCGGAUCUGCACUUCCA: -0.452
GUCCUGUGCUACACAUCGUAUGUACCGAAUCGGGGCCCCCGGCCCCCGGGGCCCCCGGAAAGUAUUAUGUUACGCCGUUCGGAUCUGCAC: -2.92
UAACUUUAGAGGAGGAUCUGAAGGAUAUGGCAGUGGACGUGGAUUUGGGGAUGGCUAUAAUGGGUAUGGAGGAGGACCUGGAGGUGGCAA: 0.000729
UCCUCAAGUCCUGUGCUACACAUCGUAUGUACCGAAUCGGGAGGGGAGGAGGAAAGUAUUAUGUUACGCCGUUCGGAUCUGCACUUCCAG: -1.1
UGUUGAUGCUGUAAUUGCUGAACUUAAAAAGCAGUCUAAACCUGUGACCACCCCUGAAGAAAUUGCACAGGUAAGGACUUAACAUGUUAC: 0.565
CACAGACAACACGCACCCACACAGACACAGAGGGAAGGGGUUGGGCUGGGGACAGGGUGCACAGCAGGGCGGGGUAGGACCCCAGCCCCU: -0.282
GUCCUGUGCUACACAUCGUAUGUACCGAAUCGGGUUUUUUUGGGAGGGAAAAAAAGGGAAAGUAUUAUGUUACGCCGUUCGGAUCUGCAC: -1.57
GUCCUGUGCUACACAUCGUAUGUACCGAAUCGGGAAAAAAAGGGUGGGAAAAAAAGGGAAAGUAUUAUGUUACGCCGUUCGGAUCUGCAC: -0.46
GCAGGAAGUAAAAACAAAUGGAAAUGCUUCGGAUAGUGGCAGGGGUGGGGGUUGCUAAGGAAAGGGUGGGAUGGGAGUGGGUAUAGAGUU: 2.85

Block 3
Target: RING finger protein unkempt homolog, zinc fingers 1-6, SBP tag (UNK, Homo sapiens, UniProt Q9C0B0, residues 30-357)
UniProt Q9C0B0, sequence (30-357, looked up): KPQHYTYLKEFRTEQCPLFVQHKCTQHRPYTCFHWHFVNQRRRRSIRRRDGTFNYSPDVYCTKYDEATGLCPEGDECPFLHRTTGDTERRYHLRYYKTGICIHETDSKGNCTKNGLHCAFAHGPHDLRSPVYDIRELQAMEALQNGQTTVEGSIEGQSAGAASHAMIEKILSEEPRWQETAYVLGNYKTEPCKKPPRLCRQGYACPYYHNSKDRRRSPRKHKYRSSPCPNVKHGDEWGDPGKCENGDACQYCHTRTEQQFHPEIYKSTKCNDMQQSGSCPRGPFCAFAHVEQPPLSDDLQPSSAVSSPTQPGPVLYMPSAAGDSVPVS
Technique: RNA Bind-n-Seq
Form: RNA
Medium: in vitro
Tested at: 100 nM
Notes: RNA with constant flanks, vertebrate orthologous sites, ends assumed
Reference: input RNA pool
Reading: higher = stronger binding
Quantity: bound/input enrichment
Constant ends, left off below: GGGAGUUCUACAGUCCGACGAUC … CAACAGAGGAUUGAGCAUCA
CACAUCUGGUGAUAUUUGGCCUGGCCUUUCUGCUUAUGAUAAUAGUCCCAGAUCACCCCAUAGUCCUUCACCUAUUGCUACACCACCUAGUCAGAGUUCAUCAUGCUCUGAUGCCCCCAU: 0.993 ratio
GGGGCCACAGCUAGAUAGGUUCCUCACUACAGUUUUAAGGGGGAAAAAAAAAGACCCAAAUAGAUUCCCUAUACAUCUGCCUGAAUUGGUCUGAGUUGGUUUCCUACCCUUUGUAUAUAC: 0.404 ratio
UUGGGACCAGUUCUCCAAAUAGGAAUAGUAGUAAAAAAAAUAAACAAAAUGAUAUUUAUAUAGAAAAAACAGAAGUUAAAUCAUGUAGGGUAAAUGCUGCUAAUGUUCCAAGCCCUAAAG: 1.55 ratio
ACAUGCUCUCUGCAGGAAGCUGCUAGCCGCUUAGCAUUCUUUUGAUUAGUGAUAUUGAAAAGAAAGGUGUGUGGUGUUUUUUUUUUUUUAAUAUUGAGACUUAAUUAACUAGAAUUUAUU: 1.39 ratio
GGUGGUAGGACCCAGGCCCUGCCACUCAGUGGCCUGCUGGCUACCUUAGCCAGGCUGUUUUAGUUCCAUAUUUUUUUAUUUUAACAUUGCCCUUACUUCCUGUACUUCAGUCUCAGAUUU: 2.28 ratio
AAUGUUUUCUUAUUUAUGAGGAUAGUUUUGUGCUAAGAACUGUGUGAAAGAUUAAAAACGUAGUGAGUUGAUUGUGUCUUUACUUUCAUUAUUGAAAAUAAAUAUAACUUUGUAUUUGAG: 0.397 ratio
GCUCUAGUUCUUGAGAACCAACACUCGUAAAAGAUUUAGAAAAAAGUUUACAACAUAAUCUAGUUUACCGAAGACGCCUUGUGCUAGAAUACUUUUUAAGAAGUAUUUUUGAAUACCAUU: 0.555 ratio
UUGGGACCAACUCCCCAAAUAAGAAUACUAGUAAAAAAAAUAAGCAAAAUGAUAUUUGUAUAGAAAAAACAGAAGUUAAAUCGUGUAAAGUAAAUGCCGCCAGUGUUCCAGGUCCUAAAG: 3.01 ratio
CUACACCAGAUAUUUUAACUGUUUUAAAGUUACAAACAAGCUUUGCUUUUUGCAUUUAAAUAGAAUACUUUUAUAUUUUAAGUGCUUCAGGUGUGUGGAGGUGUUAGUUUGCUCUUAUAA: 0.606 ratio
AAUGGCUUUUGCUUCAUGAAGAAGAGUAAAAAAUAGUCCCCUCAAUUUAAAAUGCCUAAUAGCUAUUUUAAAAAUUAAAAUGUUUAAAUGUGUAAAUCACAUCACCUGAUGUGAUUUACA: 0.829 ratio
AGGAAAUGCUGGCUGCAAACCCUCAGGAUCGUCCAGAUGCUUUUGAACUAGAACUCAGAUUAGUACAAAUUGCAUUUAAAGAUAGCAGCUGGGAAACGUGACACAUAUAUUAUUUGCAAA: 1 ratio

Block 4
Target: Prothrombin, mature alpha-thrombin (F2, Homo sapiens, UniProt P00734)
Technique: aptamer microarray, sandwich
Form: DNA with 2'F-ANA
Medium: in vitro
Tested at: 200 nM
Notes: whole 15-mer aptamer, many near background
Together with: Cy3 exosite-II aptamer, 400 nM
Reading: higher = stronger binding
Quantity: mean fluorescence intensity
Oligonucleotide: GGTTGGTGTGGTTGG
2'F-ANA at 3 6 8 9 12 15: 1130 a.u.
2'F-ANA at 1 2 9 11 12 13: 242 a.u.
2'F-ANA at 1 2 3 4 5 6 7 8 9 11: 57.4 a.u.
2'F-ANA at 2 9 10 13 14: 80 a.u.
2'F-ANA at 5 8 10 11 13: 42.6 a.u.
2'F-ANA at 5 7 11 15: 70.4 a.u.
2'F-ANA at 1 4 5 7 9 14: 39.9 a.u.
2'F-ANA at 1 3 8 9 10 11 13 15: 78.1 a.u.
2'F-ANA at 2 4 7 9 10 12 13 14: 67.7 a.u.
2'F-ANA at 1 5 6 8 9 10 11 12 13 14: 45.7 a.u.
2'F-ANA at 2 5 9 11 13 14 15: 47.1 a.u.
2'F-ANA at 1 3 4 6 7 8 10 13: 60.9 a.u.
2'F-ANA at 2 3 5 9 11 12 14: 52.5 a.u.
2'F-ANA at 6 7 8 10 12 13 14: 107 a.u.
2'F-ANA at 1 3 8 9 10 13: 68.3 a.u.
2'F-ANA at 3 4 7 8 11 12 14 15: 495 a.u.
2'F-ANA at 1 2 5 6 9 10 14: 116 a.u.
2'F-ANA at 2 5 10 12 13 14: 188 a.u.
2'F-ANA at 7 12 13 14 15: 239 a.u.
2'F-ANA at 1 2 3 6 8 9 12 13 14 15: 87.3 a.u.
2'F-ANA at 1 4 5 6 13 14: 46.7 a.u.
2'F-ANA at 4 6 7 10 11: 74.9 a.u.
2'F-ANA at 2 3 5 6 7 9 10 11 14 15: 51.5 a.u.
2'F-ANA at 1 2 3 7 8: 343 a.u.
2'F-ANA at 1 3 5 8 9 10 11 12 13: 50 a.u.

For quick reference, copied from above (block 1):
AGCGCACA: 0.14
TGTATCAA: -0.0886
GAGTCAGA: 0.0998
AATCGCGC: 0.359
AGACGAAA: 0.0363
AAATTGCC: 0.0175
AAAGATGA: -0.212
TCGAGGCA: -0.0873
CCAGCCCC: -0.0935
ACAGATCA: -0.181
AGAAAATG: -0.275
